{"data": "Published values of several laboratories", "observed": "ABTS scavenging", "note": "Protocols differ between the studies behind these lines. pIC50: −log10 of the molar value."}
{"Compound": "COc1cc(/C=C/C(=O)CC(=O)/C=C/c2ccc(OC(=O)CCc3c[nH]c4ccccc34)c(OC)c2)ccc1OC(=O)CCc1c[nH]c2ccccc12", "quantity": "pIC50", "value": 3.54}
{"Compound": "O=c1c(O)c(-c2cc(O)ccc2O)oc2cc(O)cc(O)c12", "quantity": "IC50", "value": "65 µg/mL"}
{"Compound": "O=C(/C=C/c1ccc(O)cc1)O[C@@H]1[C@@H](O)[C@H](Oc2cc(O)c3c(=O)cc(-c4ccc(O)cc4)oc3c2)O[C@H](CO)[C@H]1O", "technique": "absorbance", "time": "15 min", "quantity": "pIC50", "value": 4.44}
{"Compound": "COc1cc(/C=C/C(=O)NC(C)C(N)=O)ccc1OCc1ccccc1 (stereo not drawn)", "quantity": "pIC50", "value": 4.20}
{"Compound": "O=C(/C=C/c1ccc(O)cc1)OC[C@H]1O[C@@H](Oc2cc(O)c3c(=O)cc(-c4ccc(O)cc4)oc3c2)[C@H](O)[C@@H](OC(=O)/C=C/c2ccc(O)cc2)[C@@H]1O", "technique": "absorbance", "time": "15 min", "quantity": "pIC50", "value": 4.44}
{"Compound": "O=C(O)CCCC(=O)O", "quantity": "IC50", "value": "74 µg/mL"}
{"Compound": "S=C(NCc1ccccn1)NCc1ccccn1", "quantity": "IC50", "value": "400 µg/mL"}
{"Compound": "c1coc(-c2nc3ccccc3[nH]2)c1", "technique": "absorbance", "quantity": "pIC50", "value": 5.85}
{"Compound": "O=C(O)/C=C/c1ccc(O)cc1", "quantity": "IC50", "value": "62 µg/mL"}
{"note": "Repeated from above:"}
{"Compound": "S=C(NCc1ccccn1)NCc1ccccn1", "quantity": "IC50", "value": "400 µg/mL"}
